Published values from different studies.
Compare with care: the assays were run in different laboratories.

| Structure (SMILES) | test | test system | conditions | endpoint | result |
| --- | --- | --- | --- | --- | --- |
| C[C@@H](N)C1CCN(S(=O)(=O)c2cccc3cnccc23)CC1 | – | healthy volunteers | oral, single ascending dose | maximum tolerated dose | 150 mg |
| CNC(=O)c1cc(C(F)F)ccc1OCCc1cccc(F)c1 | – | 7H9-Tween-OADC medium | 30 (unit not given) | maximum soluble concentration | 50 µM |
| CNC(=O)c1c(C)oc2cc(Oc3ccnc4cc(OCCN5CCOCC5)ccc34)ccc12 | – | human | 9 mg once daily, cycle 1 | maximum haemoglobin level | 19.5 g/dL |
| CNC(=O)c1cc(Oc2ccc(NC(=O)Nc3ccc(Cl)c(C(F)(F)F)c3)cc2)ccn1 | – | patients with advanced solid tumours | oral, once daily, 21-day cycle, added: intravenous combination partner, every 3 weeks | maximum tolerated dose | 400 mg |
| N[C@@H]1c2ccccc2OC12CCN(c1cnc3c(N4CCCc5ncccc54)n[nH]c3n1)CC2 | – | patients advanced solid tumours | oral, once daily, 21-day cycles | maximum tolerated dose | 100 mg |
| O=C(CCCN1CCC(O)(c2ccc(Cl)cc2)CC1)c1ccc(Br)cc1 | – | sheep erythrocytes | 1 h, pH 7.5 | maximum haemolysis | 9.2% |
| Cc1cc(N(CCOS(C)(=O)=O)CCOS(C)(=O)=O)ccc1C=O | – | patients with advanced solid tumours | intravenous, phase I first-in-human | maximum tolerated dose | 9 mg/m² |
| Cc1cc(C)nc(Nc2ncc(C(=O)NCCc3c(C)[nH]c4ccccc34)cn2)c1 | – | cynomolgus monkey liver microsomes | – | maximum hepatic bioavailability | 36% |
| CCC[C@@](N)(CO)CCc1ccc(OCCCCCC(C)C)cc1 | – | 25% HP-β-CD in water | – | maximum solubility | 9100 µg/mL |
| CO[C@H]1C[C@@H]2CC[C@@H](C)[C@@](O)(O2)C(=O)C(=O)N2CCCC[C@H]2C(=O)O[C@H]([C@H](C)C[C@@H]2CC[C@@H](OC(=O)NCCOCCOCCOCCOCCOCCOCCOCCOCCC(=O)N3CCc4cc(Cn5nc(-c6ccc7oc(N)nc7c6)c6c(N)ncnc65)ccc4C3)[C@H](OC)C2)C[C@@H](O)[C@H](C)/C=C(\C)[C@@H](O)[C@@H](OC)C(=O)[C@H](C)C[C@H](C)/C=C/C=C/C=C/1C | – | patients with advanced solid tumours | intravenous, once weekly, with dexamethasone prophylaxis | maximum tolerated dose | 12 mg |
| Fc1ccc([C@@H]2CCNC[C@H]2COc2ccc3c(c2)OCO3)cc1 | ECG, Fridericia correction | healthy participants | oral, dose not given, -1 h | maximum QTc interval | 415 ms |
| Cc1nc(-c2ccc(OCCc3cccc(F)c3)c(C(N)=O)c2)cs1 | – | 7H9-Tween-OADC medium | 30 (unit not given) | maximum soluble concentration | 100 µM |
| Cc1ccc(C(=O)N(CCCN)C(c2nc3snc(C)c3c(=O)n2Cc2ccccc2)C(C)C)cc1 (stereo not shown) | – | AML patients | intravenous | maximum tolerated dose | 16 mg/day |

A few entries again:
| Structure (SMILES) | test | test system | conditions | endpoint | result |
| --- | --- | --- | --- | --- | --- |
| CCC[C@@](N)(CO)CCc1ccc(OCCCCCC(C)C)cc1 | – | 25% HP-β-CD in water | – | maximum solubility | 9100 µg/mL |
